Literature values as cited in several papers.
Lines come from different studies, so protocols differ.
Chain of UniProt P0DOF5 (whole entry, looked up): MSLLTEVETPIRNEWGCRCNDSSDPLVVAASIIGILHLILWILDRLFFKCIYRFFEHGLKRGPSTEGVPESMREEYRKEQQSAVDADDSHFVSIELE
Chain of UniProt P62937 (whole entry, looked up): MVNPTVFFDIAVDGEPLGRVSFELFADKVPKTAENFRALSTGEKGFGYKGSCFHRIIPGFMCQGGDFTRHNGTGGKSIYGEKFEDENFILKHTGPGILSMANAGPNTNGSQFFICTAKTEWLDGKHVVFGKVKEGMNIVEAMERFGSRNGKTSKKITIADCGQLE

Molecule = CCN(CC)CCOc1ccc(C(O)(Cc2ccc(Cl)cc2)c2ccc(C)cc2)cc1 (centres unmarked); target or system = MERS-CoV; assay = viral replication, ELISA; test system = Vero E6; endpoint = EC50; result = 5.28 µM
Molecule = M2 (Influenza A virus, UniProt P0DOF5); assay = NMR, refers to: His37; setting = tetramer, third protonation; endpoint = pKa; result = 6.3
Molecule = O=c1[nH]c2ccccc2n1C1CCN(CCCC(c2ccc(F)cc2)c2ccc(F)cc2)CC1; target or system = Ebola virus; assay = viral replication, eGFP reporter virus; test system = Vero E6; endpoint = IC50; result = 3.12 µM
Molecule = CC(C)(C)[C@H](NC(=O)C(F)(F)F)C(=O)N1C[C@H]2[C@@H]([C@H]1C(=O)N[C@H](C#N)C[C@@H]1CCNC1=O)C2(C)C; target or system = Caco-2; assay = cytotoxicity; endpoint = CC50; result = > 100 µM
Molecule = CCN(CC)CCCC(C)Nc1ccnc2cc(Cl)ccc12 (centres unmarked); target or system = MERS-CoV; assay = viral replication, ELISA; test system = Vero E6; endpoint = EC50; result = 6.28 µM
Molecule = M2 transmembrane domain (Influenza A virus, UniProt P0DOF5); assay = solid-state NMR, refers to: His37; test system = lipid bilayers; setting = tetramer, third protonation; endpoint = pKa; result = 6.3
Molecule = CC(CN1c2ccccc2Sc2ccccc21)N(C)C (centres unmarked); target or system = SARS-CoV; assay = cytopathic effect; test system = Vero E6; endpoint = EC50; result = 7.54 µM
Molecule = capsid protein (Human immunodeficiency virus 1, UniProt O93182); target or system = PPIA (Homo sapiens, UniProt P62937); assay = ITC; endpoint = Kd; result = 5.3 µM

Excerpt of the above:
Molecule = CC(C)(C)[C@H](NC(=O)C(F)(F)F)C(=O)N1C[C@H]2[C@@H]([C@H]1C(=O)N[C@H](C#N)C[C@@H]1CCNC1=O)C2(C)C; target or system = Caco-2; assay = cytotoxicity; endpoint = CC50; result = > 100 µM
